Measured values of several laboratories.
Each line is one published result; not all experiments were run side by side. Values joined by “and” are separate records of one study, mostly repeats; a detail may differ. ± gives the spread as reported.
Albumin: Albumin (Mus musculus, UniProt P07724)
Chain of UniProt P07724 (whole entry, looked up): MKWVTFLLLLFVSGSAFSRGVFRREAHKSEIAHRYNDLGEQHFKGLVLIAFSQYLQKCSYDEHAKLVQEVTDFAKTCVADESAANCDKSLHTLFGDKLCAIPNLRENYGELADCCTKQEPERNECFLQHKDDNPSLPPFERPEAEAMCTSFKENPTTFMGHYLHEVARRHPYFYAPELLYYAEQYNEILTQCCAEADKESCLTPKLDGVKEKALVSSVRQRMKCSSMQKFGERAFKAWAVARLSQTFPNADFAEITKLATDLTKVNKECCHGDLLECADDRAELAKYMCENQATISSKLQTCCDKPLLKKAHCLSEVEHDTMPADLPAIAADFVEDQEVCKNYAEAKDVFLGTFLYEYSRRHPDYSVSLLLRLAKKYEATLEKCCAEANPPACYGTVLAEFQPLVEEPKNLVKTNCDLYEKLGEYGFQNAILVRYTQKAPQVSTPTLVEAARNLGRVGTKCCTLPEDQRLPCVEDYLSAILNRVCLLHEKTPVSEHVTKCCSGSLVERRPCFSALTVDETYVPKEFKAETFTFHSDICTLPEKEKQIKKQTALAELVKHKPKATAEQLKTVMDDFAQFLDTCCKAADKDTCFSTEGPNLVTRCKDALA
TDP1: Tyrosyl-DNA phosphodiesterase 1 (TDP1, Homo sapiens, UniProt Q9NUW8)
Chain of UniProt Q9NUW8 (whole entry, looked up): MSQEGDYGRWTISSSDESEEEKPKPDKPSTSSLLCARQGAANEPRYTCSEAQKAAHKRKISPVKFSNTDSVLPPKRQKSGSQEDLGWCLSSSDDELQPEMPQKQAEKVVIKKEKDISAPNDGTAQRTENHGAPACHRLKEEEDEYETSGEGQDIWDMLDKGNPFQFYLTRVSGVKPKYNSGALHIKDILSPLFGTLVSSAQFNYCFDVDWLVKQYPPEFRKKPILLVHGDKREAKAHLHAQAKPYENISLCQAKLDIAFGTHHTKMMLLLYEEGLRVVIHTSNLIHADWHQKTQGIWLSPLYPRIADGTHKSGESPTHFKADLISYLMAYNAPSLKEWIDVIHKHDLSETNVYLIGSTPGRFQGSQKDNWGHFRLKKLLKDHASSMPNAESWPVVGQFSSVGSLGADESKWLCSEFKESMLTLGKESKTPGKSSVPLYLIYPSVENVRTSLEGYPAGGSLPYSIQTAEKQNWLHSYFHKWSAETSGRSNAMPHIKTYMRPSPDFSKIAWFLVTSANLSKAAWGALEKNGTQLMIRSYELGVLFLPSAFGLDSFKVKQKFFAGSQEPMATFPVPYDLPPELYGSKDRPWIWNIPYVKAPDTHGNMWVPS
Chain of UniProt P0A7A9 (whole entry, looked up): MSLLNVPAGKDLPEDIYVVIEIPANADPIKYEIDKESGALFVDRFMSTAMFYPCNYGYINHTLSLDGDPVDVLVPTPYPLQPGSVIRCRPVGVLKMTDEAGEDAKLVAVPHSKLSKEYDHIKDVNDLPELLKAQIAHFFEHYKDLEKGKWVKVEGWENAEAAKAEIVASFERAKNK

SMILES | target or system | assay | test system | conditions | how to read | quantity | result
Cc1cc(O)c(=O)c(O)cc1-c1ccc2ccccc2c1 | HepDES19 | cell growth or viability, MTS | – | 72 h | – | CC50 | 86.8 µM
Cn1nc(CNc2nnn[nH]2)c(=O)c2c(=O)[nH]c(N)nc21 | Escherichia coli | LC-MS/MS | BW25113 | 100 µM, 10 min, 37 °C | – | intracellular accumulation | 5.67 ± 0.2 µM
CC(C)OCCOCc1ccc(OCC(O)CN(N=O)C(C)C)cc1 (centres unmarked) | Salmonella typhimurium | Ames test | TA1537 | 5 µg/plate, 30 % rat S9 | baseline: solvent control | revertant fold increase | 1.4 fold
CCN(CC)CC#CCNc1ccnc2cc(Cl)ccc12 | Salmonella typhimurium | mini-Ames test | TA97a | 1000.0 µg/well, with rat liver S9 | – | revertants | 13 revertants/well and 8 revertants/well
COc1ccc(C(=O)c2cc(O)c(=O)c(O)cc2C)cc1 | HepDES19 | cell growth or viability, MTS | – | 72 h | – | CC50 | 27.8 µM
CN1CCN(c2ccc3[nH]c(-c4ccc5[nH]c(-c6ccc(OCCCCNC(=O)c7ccc8c(c7)C7(OC8=O)c8ccc(N(C)C)cc8C(C)(C)c8cc(N(C)C)ccc87)cc6)nc5c4)nc3c2)CC1 | Albumin | binding, fluorescence titration | PBS | 1 h | – | Kd | 32 ± 16 µM
COc1cccc(OC)c1-c1cc(C(=O)NC2(C(=O)O)C3CC4CC(C3)CC2C4)nn1-c1ccc(C(=O)NCCNC(=O)[C@H](CCCCNC(=O)[C@H](CC(C)C)NC(=O)C2OC2C(=O)O)NC(=O)CN2CCN(CC(=O)[O-])CCN(CC(=O)[O-])CCN(CC(=O)[O-])CC2)cc1C(C)C.[177Lu+3] (mixture of isomers) | HT-29 tumour model | – | host not given, blood | 7 days, tumour-bearing | – | tracer uptake | 0.16 %ID/g
CC(C)Cc1ccc(C(C)C(=O)N[C@@H](CCCCNC(=O)CCOCCOCCOCCOCCOCCOCCNC(=O)CN2CCN(CC(=O)[O-])CCN(CC(=O)[O-])CCN(CC(=O)[O-])CC2)C(=O)Nc2cccc3c(C(=O)NCC(=O)N4CC(F)(F)C[C@H]4C#N)ccnc23)cc1.[177Lu+3] (some centres unmarked) | U-87 MG tumour model | – | host not given, stomach | 48 h, tumour-bearing | – | tracer uptake | 0.19 %ID/g
COC(=O)Nc1nc2cc(C(O)c3ccc(F)cc3)ccc2[nH]1 (centres unmarked) | Salmonella typhimurium | Ames preincubation test | TA1535 | 875.0 µg per plate, 3 days, without S9, precipitation | – | revertants | 16 revertants per plate
O=C1NC2(CC2)COc2ncc(F)cc2[C@H]2COCCN2c2ccn3ncc1c3n2 | Salmonella typhimurium | Ames test | TA97a | 50 µg/plate, 48 h, added: without S9 | – | revertant colonies | 86 ± 11 revertants/plate
N=C(N)NCCC[C@@H]1NC(=O)[C@@H](CCCNC(=N)N)NC(=O)[C@H](CCCNC(=N)N)NC(=O)[C@@H](C(c2ccccc2)c2ccccc2)NC(=O)[C@H](Cc2c[nH]c3ccccc23)NC(=O)[C@@H](C(c2ccccc2)c2ccccc2)NC(=O)[C@@H](CCCNC(=N)N)NC1=O | human red blood cells | haemolysis | – | 2 h, 37 °C | – | HC50 | 240 µg/mL
O=C(O)c1ccc(Nc2c(-c3ccccc3)nc3ccc(CON=Cc4ccc(S(=O)(=O)c5ccc(Cl)cc5)cc4)cn23)cc1 (mixture of isomers) | TDP1 | enzyme activity, inhibitor | – | 100 µM, unpurified compound | – | inhibition | 65.4%
O=C1C2CC3CC1CC(C(=O)N1CCN(c4ccc([N+](=O)[O-])c5ncccc45)CC1)(C3)C2 | Salmonella typhimurium | Ames test | TA1535 | 0.13 µg/well, without S9 activation | – | revertant colony count | 2 colonies/well
O=Nc1ccc(O)c(=O)cc1 | HepDES19 | cell growth or viability, MTS | – | 72 h | – | CC50 | 78.6 µM
C=C(NC(=O)c1csc(-c2nc3c(cc2O)-c2nc(cs2)C(=O)NC(C(C)O)C(=O)NC(=C(C)OC)c2nc(cs2)C(=O)NC2c4nc(cs4)C(=O)NC(COC(=O)c4c5c6c(cccc6n4O)COC(=O)C(OC4CC(C)(O)C(N(C)C)C(C)O4)C2OC5)c2nc-3cs2)n1)C(N)=O (centres unmarked) | – | – | ICR mice, Streptococcus pneumoniae ATCC 49169 infected, immunocompromised, blood | intravenous, 2 mg/kg/day three times daily | – | AUC(0-t) | 188 ng·h/mL
CCOC(=O)c1c(C)cc(O)c(=O)c(O)c1O | HepDES19 | cell growth or viability, MTS | – | 72 h | – | CC50 | 12.2 µM

SMILES | target or system | assay | test system | conditions | how to read | quantity | result
CNC(=O)C1CCCN(C(=O)C2CC3CCC2N3C(=O)[C@@H]2C[C@@H](O)CN2C(=O)NCc2cccc(Cl)c2F)C1 (mixture of isomers) | CYP3A4 (human) | inhibitor, time-dependent inhibition | – | 16.7 µM, preincubated with NADPH, added: testosterone substrate | baseline: negative control | remaining activity | 95.9%
COC(=O)c1c(C)cc(O)c(=O)c(O)c1C(=O)OC | HepDES19 | cell growth or viability, MTS | – | 72 h | – | CC50 | 38 µM
N#C[C@@H]1CC(F)(F)CN1C(=O)CNC(=O)c1ccnc2c(NC(=O)CCOCCOCCOCCOCCOCCOCCNC(=O)[C@H](CCCCNC(=O)CN3CCN(CC(=O)[O-])CCN(CC(=O)[O-])CCN(CC(=O)[O-])CC3)NC(=O)CCCc3ccc(I)cc3)cccc12.[177Lu+3] | U-87 MG tumour model | – | host not given, stomach | 4 h, tumour-bearing | – | tracer uptake | 0.58 %ID/g
Nc1nc2cc(C(=O)c3ccc(F)cc3)ccc2[nH]1 | Salmonella typhimurium | Ames preincubation test | TA1535 | 156.0 µg/plate, without S9 | – | revertants | 14.7 revertants/plate
O=C(O)c1ccc(Nc2c(-c3ccccc3)nc3ccc(CON=CC=Cc4cn(Cc5ccccc5)nn4)cn23)cc1 (mixture of isomers) | TDP1 | enzyme activity, inhibitor | – | 100 µM, unpurified compound | – | inhibition | 5.2%
Cc1cc(O)c(=O)c(O)cc1-c1ccc(Br)cc1 | HepDES19 | cell growth or viability, MTS | – | 72 h | – | CC50 | 38.3 µM
N#C[C@@H]1CCCN1C(=O)CNC(=O)c1ccnc2ccc(OCCCN3CCN(C(=O)CCc4ccc5c(c4)CN4CCN(Cc6cc(CCC(=O)O)ccc6O)CC(=O)[O][Al-]([18F])([O]C(=O)C4)[O]5)CC3)cc12 (some centres unmarked) | U-87 MG tumour model | – | host not given, muscle | 1 h, tumour-bearing | – | tracer uptake | 1.35 %ID/g
O=C(Nc1cnccc1-c1ccc([18F])cc1)c1ccnc(NC(=O)C2CC2)c1 | – | ex vivo gamma counting | GSK-3β transgenic mice, late-stage, feces | intravenous, 120 min, mean, P-gp inhibitor pretreatment, added: tariquidar 15 mg/kg iv | – | SUV | 4.56
COc1cccc(OC)c1-c1cc(C(=O)NC2(C(=O)O)C3CC4CC(C3)CC2C4)nn1-c1ccc(C(=O)N(C)CCOCCN(C)C(=O)[C@H](CCCCNC(=O)[C@H](CC(C)C)NC(=O)C2OC2C(=O)O)NC(=O)CN2CCN(CC(=O)[O-])CCN(CC(=O)[O-])CCN(CC(=O)[O-])CC2)cc1C(C)C.[177Lu+3] (mixture of isomers) | HT-29 tumour model | – | host not given, blood | 72 h, tumour-bearing | – | tracer uptake | 0.7 %ID/g
CN1CCN(c2ccc3[nH]c(-c4ccc5[nH]c(-c6ccc(OCCCCNC(=O)c7ccc8c(c7)C(=O)OC87c8ccc(N(C)C)cc8C(C)(C)c8cc(N(C)C)ccc87)cc6)nc5c4)nc3c2)CC1 | Albumin | binding, fluorescence titration | PBS | 1 h | – | Kd | 14 ± 4 µM
O=c1c(O)ccccc1O | HepDES19 | cell growth or viability, MTS | – | 72 h | – | CC50 | 95 µM
CN1CCN(c2ccc3[nH]c(-c4ccc5[nH]c(-c6ccc(OCCCCNC(=O)c7ccc8c(c7)C7(OC8=O)c8ccc(N(C)C)cc8[Si](C)(C)c8cc(N(C)C)ccc87)cc6)nc5c4)nc3c2)CC1 | Albumin | binding, fluorescence titration | PBS | 1 h | – | Kd | 62 ± 5 µM
COc1ccc(OC)c(C2=Nn3c(nnc3-c3ccc(C)cc3)SC2)c1 | ppa (Escherichia coli, UniProt P0A7A9) | enzyme activity, inhibitor | – | – | – | IC50 | 293 µM
COc1cccc(OC)c1-c1cc(C(=O)NC2(C(=O)O)C3CC4CC(C3)CC2C4)nn1-c1ccc(C(=O)N(C)CCCN(C)CCCN(C)C(=O)[C@H](CCCCNC(=O)[C@H](CC(C)C)NC(=O)C2OC2C(=O)O)NC(=O)CN2CCN(CC(=O)[O-])CCN(CC(=O)[O-])CCN(CC(=O)[O-])CC2)cc1C(C)C.[177Lu+3] (mixture of isomers) | HT-29 tumour model | – | host not given, blood | 7 days, tumour-bearing | – | tracer uptake | 0.8 %ID/g
O=c1c(O)ccc(-c2ccncc2)cc1O | HepDES19 | cell growth or viability, MTS | – | 72 h | – | CC50 | 20 µM
N#C[C@@H]1CC(F)(F)CN1C(=O)CNC(=O)c1ccnc2c(NC(=O)[C@H](CCCCNC(=O)CCOCCOCCOCCOCCOCCOCCNC(=O)CN3CCN(CC(=O)[O-])CCN(CC(=O)[O-])CCN(CC(=O)[O-])CC3)NC(=O)CCCc3ccc(I)cc3)cccc12.[177Lu+3] | U-87 MG tumour model | – | host not given, bone | 72 h, tumour-bearing | – | tracer uptake | 0.68 %ID/g

A few entries again:
SMILES | target or system | assay | test system | conditions | how to read | quantity | result
Nc1nc2cc(C(=O)c3ccc(F)cc3)ccc2[nH]1 | Salmonella typhimurium | Ames preincubation test | TA1535 | 156.0 µg/plate, without S9 | – | revertants | 14.7 revertants/plate
O=C1C2CC3CC1CC(C(=O)N1CCN(c4ccc([N+](=O)[O-])c5ncccc45)CC1)(C3)C2 | Salmonella typhimurium | Ames test | TA1535 | 0.13 µg/well, without S9 activation | – | revertant colony count | 2 colonies/well
